Published values from different studies.
A part holds a random share of what one study measured.

Study 1 — method: RNA Bind-n-Seq; form: RNA; matrix: in vitro; concentration: 365 nM; relative to: no-protein control; reading: higher = stronger binding
Target: RNA binding protein fox-1 homolog 2, RRM domain, GST-SBP tag (RBFOX2, Homo sapiens, UniProt O43251-10, residues 100-194)
Setting: natural RNA segment, single round, ends assumed
Residues (chain): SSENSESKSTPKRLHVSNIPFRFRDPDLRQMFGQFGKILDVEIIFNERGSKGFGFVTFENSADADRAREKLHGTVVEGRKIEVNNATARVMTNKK
| Sequence | RBNS enrichment (R) |
| --- | --- |
| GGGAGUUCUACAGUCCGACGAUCUUUAUUUUGAUUACCGAGGGUAUUUGGGGUGGGGUUGUUUUUUGAGAUGUGUAAUUCUUUUAUGGAGUUUUUAAAAAGAAUUUUCAUAUUGUUUUUCUAACAUGGCUUCAUGGAAUUCUCGGGUGCCAA | 0.738 |
| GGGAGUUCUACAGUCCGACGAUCAGAGCUCCACAAUCAAGAUGGCAAAUGGAAACGUAAUCUGACUUCCUGGUGAAAAAUAAAAACCGGAGAAGUCAUUUGGAGGGCCAUCCUAAAGCUCUACUGUAUAAUGAUGGAAUUCUCGGGUGCCAA | 0.474 |
| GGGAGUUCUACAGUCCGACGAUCUCUUCCUACAGGGAAGAAGAGCAACCCUCAGCAGCCCUCUUGCCCCUCCAUGGGGUGAAGCCACACUCAGUGGGUGUGUCACUUCAGGCUCUGUGGGCUGUGCUCAGUCUUGGAAUUCUCGGGUGCCAA | 0.205 |
| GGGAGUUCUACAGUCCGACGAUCCACUUUCUUUUCAAAGAAAUGUUAAUUAUUACAAAAAUUGACAUAGAUAUCUUUCCCAAACUUGGGGUAAAACCCAUGGUUAUGUGGAACAUAACUGUUCUUAAAAAGUCUGGAAUUCUCGGGUGCCAA | 0.337 |
| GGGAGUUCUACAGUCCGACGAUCGAGUACAGAUGGGGAGGAAGGUUCCAGACUCUCCUCUCACUUUUUUUUUCCUCUCCUAUUCCAACACUUCCUGCUGGGAGAUCUCCACGCCUAUUUUCACCAUUCUCAGGUGGAAUUCUCGGGUGCCAA | 0.361 |
| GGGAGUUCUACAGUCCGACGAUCCCCGAGAGCUAAAGCCGAUGGUCAGGAAAAGUGACCUGUCUCUGCAGAUUGGAAGAAUGGACUCUAAGGAGGCUGUUUGCACAAGGCUCUCCACUCACCAGCUGUUGAGUUGGAAUUCUCGGGUGCCAA | 0.452 |
| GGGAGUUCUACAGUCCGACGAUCAUUAGUGCGAGGCAAACAUAACUCAUUUGAGGAUAAAGUUUGUGUUGGAUAUGUGGUUCCUGAUGCAUUUUGACUUGUCUUUUUAAAUGCUUUAUCUUUUUCUUUAAAGAUGGAAUUCUCGGGUGCCAA | 1.1 |
| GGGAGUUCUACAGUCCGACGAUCUGUCUCCAUGUUGACACUUCAUCCUAGAUUUAAGGAGAGGCAUCAAUUUUUUUUUUUUUUUGCCUCAAGAGAAAUUUCAAAUAUCCAAAUUAAAACACAGUAGCAUUUGAUGGAAUUCUCGGGUGCCAA | 0.446 |

Study 2 — method: aptamer microarray, sandwich; form: DNA with 2'F-ANA; matrix: in vitro; concentration: 200 nM; together with: Cy3 exosite-II aptamer, 400 nM; reading: higher = stronger binding; sequence: GGTTGGTGTGGTTGG
Target: Prothrombin, mature alpha-thrombin (F2, Homo sapiens, UniProt P00734)
Setting: whole 15-mer aptamer, many near background
| Modification | mean fluorescence intensity [a.u.] |
| --- | --- |
| 2'F-ANA at 1 2 3 6 13 | 169 |
| 2'F-ANA at 1 2 5 6 7 14 15 | 45.4 |
| 2'F-ANA at 1 2 3 5 6 10 14 15 | 45.1 |
| 2'F-ANA at 2 4 5 12 14 15 | 62.3 |
| 2'F-ANA at 1 2 3 4 5 6 7 9 10 11 12 | 50.7 |
| 2'F-ANA at 4 5 6 7 14 | 52.2 |
| 2'F-ANA at 3 4 5 6 7 8 9 10 12 14 15 | 60.1 |
| 2'F-ANA at 4 5 6 7 10 11 14 15 | 44 |
| 2'F-ANA at 4 5 7 8 11 12 13 15 | 85.3 |
| 2'F-ANA at 3 4 5 6 7 8 9 10 11 12 13 14 15 | 71.9 |
| 2'F-ANA at 6 7 12 13 14 15 | 214 |
| 2'F-ANA at 4 5 6 10 11 12 15 | 51.6 |
| 2'F-ANA at 2 3 4 5 8 12 13 14 | 53.7 |
| 2'F-ANA at 1 2 4 6 7 8 9 14 | 52.4 |
| 2'F-ANA at 1 3 4 6 7 9 10 12 14 | 63.5 |
| 2'F-ANA at 1 2 5 6 8 9 10 12 14 | 50 |
| 2'F-ANA at 1 4 6 7 9 13 15 | 67.3 |
| 2'F-ANA at 3 4 5 8 10 11 13 14 15 | 50.6 |
| 2'F-ANA at 2 3 4 5 6 7 8 9 10 12 13 14 15 | 55.4 |
| 2'F-ANA at 1 3 5 6 9 11 12 14 15 | 48.6 |
| 2'F-ANA at 3 5 8 9 11 14 | 59 |
| 2'F-ANA at 4 5 10 13 14 15 | 45.5 |
| 2'F-ANA at 2 3 5 7 10 11 | 70.8 |

Study 3 — method: protein binding microarray; form: double-stranded DNA, one strand shown; matrix: in vitro; concentration: not given; relative to: not given; reading: higher = stronger binding
Target: Histone acetyltransferase KAT6A, winged helix 2, GST fusion (KAT6A, Homo sapiens, UniProt Q92794, residues 85-181)
Setting: 8-mer, flanks averaged, mean of 2 arrays, mostly near background
Residues (chain): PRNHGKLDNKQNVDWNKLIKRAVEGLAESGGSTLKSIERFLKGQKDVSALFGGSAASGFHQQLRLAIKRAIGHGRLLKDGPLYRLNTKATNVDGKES
| Sequence | E-score |
| --- | --- |
| CCCCTGCC | 0.156 |
| TGGATCCA | 0.109 |
| ATGTTACC | -0.0413 |
| CAACGACA | 0.0531 |
| CAATGATG | -0.0779 |
| CGAGGGGC | 0.0766 |
| ACTCATAA | -0.0772 |
| ACTTGAGG | -0.118 |
| ATGGTTCC | 0.0547 |
| CACCCCAC | 0.0166 |
| CACCCGTG | 0.0281 |
| AATAATGG | -0.0927 |
| GAAAGGCC | -0.0375 |
| CGGTAGAA | -0.0356 |
| CTAGCTCA | -0.00012 |
| CCTAGGGA | 0.0398 |
| AAGACGCC | 0.0175 |
| AATGCGCC | 0.149 |
| ACCCGACT | -0.0578 |
| AGAGACGG | 0.0347 |
| AGTCCAGC | 0.0263 |
| AAGACCCG | 0.00997 |
| CACGCTAC | -0.0701 |
| AAGACGTG | -0.257 |
| ATTTTAGC | 0.092 |

Study 4 — method: universal PBM; form: double-stranded DNA, one strand shown; matrix: in vitro; concentration: 600 nM; reading: higher = stronger binding
Target: Sal-like protein 4, full length isoform A (SALL4, Homo sapiens, UniProt Q9UJQ4, residues 1-1053)
UniProt Q9UJQ4, sequence (whole entry, looked up): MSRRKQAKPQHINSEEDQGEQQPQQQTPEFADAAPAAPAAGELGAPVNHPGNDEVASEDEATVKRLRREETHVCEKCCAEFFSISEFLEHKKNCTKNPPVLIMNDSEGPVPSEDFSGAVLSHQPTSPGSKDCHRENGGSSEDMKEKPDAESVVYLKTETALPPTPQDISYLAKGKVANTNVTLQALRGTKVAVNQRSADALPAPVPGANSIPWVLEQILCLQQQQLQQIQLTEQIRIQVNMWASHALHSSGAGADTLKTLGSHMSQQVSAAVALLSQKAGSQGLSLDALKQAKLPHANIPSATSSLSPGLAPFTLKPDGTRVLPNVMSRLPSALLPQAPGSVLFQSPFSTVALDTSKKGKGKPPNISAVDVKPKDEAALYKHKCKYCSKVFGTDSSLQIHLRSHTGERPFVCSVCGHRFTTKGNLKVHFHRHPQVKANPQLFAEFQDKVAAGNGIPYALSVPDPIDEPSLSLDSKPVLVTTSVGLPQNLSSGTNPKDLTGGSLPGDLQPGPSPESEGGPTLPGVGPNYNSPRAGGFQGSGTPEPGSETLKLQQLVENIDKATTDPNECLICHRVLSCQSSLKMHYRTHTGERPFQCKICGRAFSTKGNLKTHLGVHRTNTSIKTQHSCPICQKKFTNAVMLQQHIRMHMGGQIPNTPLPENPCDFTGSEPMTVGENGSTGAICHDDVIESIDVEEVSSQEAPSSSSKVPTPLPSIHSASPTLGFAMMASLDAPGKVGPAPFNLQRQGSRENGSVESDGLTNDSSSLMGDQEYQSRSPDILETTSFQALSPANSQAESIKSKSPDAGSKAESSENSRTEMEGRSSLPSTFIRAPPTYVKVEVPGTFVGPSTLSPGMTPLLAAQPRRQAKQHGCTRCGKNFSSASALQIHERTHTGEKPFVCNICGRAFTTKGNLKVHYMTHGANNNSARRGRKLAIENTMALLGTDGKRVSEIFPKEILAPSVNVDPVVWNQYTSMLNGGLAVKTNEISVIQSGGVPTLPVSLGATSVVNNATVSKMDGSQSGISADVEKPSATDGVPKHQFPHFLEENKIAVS
Setting: 8-mer, flanks averaged, mean of replicates
| Sequence | E-score |
| --- | --- |
| CATCCCTC | -0.191 |
| CGACAGGC | -0.303 |
| AGGCGATC | -0.183 |
| AGTCTCTG | -0.179 |
| CCTGAAAG | 0.0456 |
| CCGGAGCC | -0.321 |
| CGGCAGCC | -0.311 |
| ATCCACGC | -0.144 |
| ACATCGAC | -0.0493 |
| AGAACTCT | -0.0935 |
| GAGGTCAA | -0.0715 |
| ACCGAGGT | -0.258 |
| ACTGCAAG | -0.0153 |
| ATCATTGC | 0.106 |
| CTCCAACC | -0.0576 |
| CAGCGTGG | -0.191 |
| ACTCTTCT | -0.0605 |
| CAAAAATA | 0.371 |
| GCACCGGC | -0.331 |
| GTGTCTCA | -0.0195 |
| AGCGCCCG | -0.313 |
| GCGTACCC | -0.214 |
| AGACATAC | 0.196 |
| AACTAAAT | 0.155 |
| AGATAAAC | 0.247 |

Excerpt of the above (study 2):
| Modification | mean fluorescence intensity [a.u.] |
| --- | --- |
| 2'F-ANA at 1 2 5 6 8 9 10 12 14 | 50 |
| 2'F-ANA at 1 4 6 7 9 13 15 | 67.3 |
| 2'F-ANA at 3 4 5 8 10 11 13 14 15 | 50.6 |
| 2'F-ANA at 2 3 4 5 6 7 8 9 10 12 13 14 15 | 55.4 |
| 2'F-ANA at 1 3 5 6 9 11 12 14 15 | 48.6 |
| 2'F-ANA at 3 5 8 9 11 14 | 59 |
| 2'F-ANA at 4 5 10 13 14 15 | 45.5 |
| 2'F-ANA at 2 3 5 7 10 11 | 70.8 |
